Experimental data pooled from the literature.
Lines come from different studies, so protocols differ. ± gives the spread as reported. Converted amounts (≈) assume the structure as drawn.

The chains behind the UniProt entries cited, without tags or fusion partners.
UniProt Q9UPZ9, whole entry: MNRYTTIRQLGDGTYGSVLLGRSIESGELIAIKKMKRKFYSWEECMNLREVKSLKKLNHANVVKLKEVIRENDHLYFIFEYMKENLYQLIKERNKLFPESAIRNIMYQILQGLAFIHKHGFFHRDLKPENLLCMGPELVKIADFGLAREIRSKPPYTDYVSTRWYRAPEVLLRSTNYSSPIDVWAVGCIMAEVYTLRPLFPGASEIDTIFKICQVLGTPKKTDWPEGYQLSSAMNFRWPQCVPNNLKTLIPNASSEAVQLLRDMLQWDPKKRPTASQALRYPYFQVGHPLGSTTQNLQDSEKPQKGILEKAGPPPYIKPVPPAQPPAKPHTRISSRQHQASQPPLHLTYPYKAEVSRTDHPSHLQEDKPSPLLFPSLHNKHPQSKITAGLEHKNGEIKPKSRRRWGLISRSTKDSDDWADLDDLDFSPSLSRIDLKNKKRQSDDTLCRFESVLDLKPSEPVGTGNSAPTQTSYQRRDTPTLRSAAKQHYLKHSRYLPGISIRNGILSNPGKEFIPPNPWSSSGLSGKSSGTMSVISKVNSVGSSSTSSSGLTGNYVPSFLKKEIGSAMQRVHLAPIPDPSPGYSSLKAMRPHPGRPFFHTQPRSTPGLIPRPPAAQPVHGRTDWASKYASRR

SMILES | tested on | test | system | setting | how to read | quantity | value
CCCCCCC1c2ccc(O)cc2Oc2cc(O)ccc21 | Klebsiella pneumoniae | – | BARB 105 | together with: polymyxin B nonapeptide 25 µg/mL | – | MIC | 14.9 µg/mL (≈ 49.9 µM)
CCC(C)C1NC(=O)/C(=C(/C)O)C1=O (stereo not drawn) | Arabidopsis thaliana | – | Col-0, seedlings on agar | 20 µM, 6 d | – | root growth | 0.1 cm
O=c1ccc2nc3ccc(OCc4ccc([N+](=O)[O-])s4)cc3oc-2c1 | Mycobacterium tuberculosis | – | mc2 6206 PA-824-resistant ddn mutant | 7 days | – | MIC90 | > 256 µM
CCN1CCN(Cc2ccc(NC(=O)c3ccc(C)c(/C=C/c4cnc5[nH]ccc5c4OC)c3)cc2C(F)(F)F)CC1 | CILK1 (Homo sapiens, UniProt Q9UPZ9) | inhibitor, cell-based kinome screen | – | 5 µM | baseline: vehicle | log2 fold change | -0.045 log2
CCC(C)C(CC)C(N)=O (stereo not drawn) | – | 6 Hz psychomotor seizure test | mouse | intraperitoneal, together with: 32 mA | – | ED50 | 37 mg/kg
CSc1nc(Cl)cc(Sc2nnc(-c3cc(C(F)(F)F)cc(C(F)(F)F)c3)[nH]2)n1 | Escherichia coli | – | MC4100 | no additive | – | MIC | > 590 µg/mL
O=C(C1CC1)N1CC2CC(C1)N2 | – | limb use asymmetry test | rat, unilateral 6-OHDA lesion | 5 min period, off L-dopa | – | contralateral forelimb use | 12.9 ± 3%
Cc1ccc2[nH]c(CNCCC[C@H]3CCOC3)cc(=O)c2c1 | cells expressing human DRD4 | arrestin over Gαi/o signalling | – | – | baseline: quinpirole | bias factor | 7.8 fold
CCN(CC)C(=O)Oc1ccc(C(=O)Nc2cccc3cc[nH]c23)cc1 | – | NMDA receptor EPSC, inhibitor, whole-cell patch clamp | CA1 interneurons, mouse, hippocampal slices | 10 µM | – | weighted decay time constant | 101 ± 14 ms
CC1CCC2(CC1)OOCN(CCCCCCCCCCN1COOC3(CCC(C)CC3)OOC3(CCC(C)CC3)OOC1)COOC1(CCC(C)CC1)OO2 (stereo not drawn) | Jurkat | cytotoxicity, 7-AAD flow cytometry | – | – | – | IC50 | 3120 ± 250 nM
O=c1ccc2ccc(OCc3ccc([N+](=O)[O-])o3)cc2o1 | Mycobacterium tuberculosis | – | mc2 6206 PA-824-resistant ddn mutant | 7 days | – | MIC90 | 14.2 µM (≈ 4.08 µg/mL)
CCc1nc(N)nc(N)c1C#CCc1cc(OC)cc(-c2ccc(C(=O)O)cc2)c1 | Staphylococcus aureus | – | MRSA isolate UCH 1 | – | – | MIC | 2.5 µg/mL (≈ 6.21 µM)
O=C(N/N=C/c1cc([N+](=O)[O-])ccc1O)c1ccc(O)cc1O | SK-OV-3 GFP knock-out control | cell counting | – | 10 µM, 6 d | – | cell growth | decreased
CC(C)Cc1nnc2c(C(=O)NC3c4ccccc4-c4ccccc43)cccn12 | Escherichia coli | broth microdilution | MB5746 rpoZ Δ21-91 frameshift | – | baseline: mutant over wild type | MIC ratio | > 32
CC(C)Oc1ccc2nc3ccc(=O)cc-3oc2c1 | Mycobacterium tuberculosis | – | mc2 6206 bedaquiline-resistant MmpL5 regulator mutant | 7 days | – | MIC90 | 88 µM (≈ 22.5 µg/mL)
CCOC(=O)OCOc1c(-c2ccc(Oc3ccc(OC(F)(F)F)cc3)cc2)c(C)nc2cc(OC)c(Cl)cc12 | Plasmodium yoelii | – | mouse | oral, 4 days, Peters test | – | non-recrudescence dose | 1 mg/kg/day
O=c1ccc2nc3ccc(OCc4ccccc4)cc3oc-2c1I | Mycobacterium tuberculosis | – | mc2 6206 clofazimine-resistant fbiC mutant | 7 days | – | MIC90 | 242 µM (≈ 104 µg/mL)
CC#C/C(=N\OC[C@H]1COCCN1)c1ccc2ncnc(Nc3ccc(OCc4cccc(F)c4)c(Cl)c3)c2c1 | SK-BR-3 | cell growth, WST-8 | – | 72 h | – | IC50 | 14 ± 3.6 nM
CCCOc1ccc2nc3ccc(=O)cc-3oc2c1 | Mycobacterium tuberculosis | – | mc2 6206 PA-824-resistant ddn mutant | 7 days | – | MIC90 | 4.8 µM (≈ 1.23 µg/mL)
Cc1ccc(S(=O)(=O)N(C)CC(=O)N(Cc2ccc(C3CCCCC3)cc2)c2ccc(C(=O)O)c(O)c2)cc1 | NIH3T3/v-Src, PANC-1, MDA-MB-231 | immunoblotting, refers to: phospho-Src Tyr416 | – | concentration not given, 24 h | – | phosphorylation level | no effect
c1ccc(Nc2cccc3ccccc23)cc1 | Manis javanica OBP3 F52A | binding, fluorescence binding | – | together with: 1-NPN probe | – | Kd | 430 ± 80 nM

A few entries again:
SMILES | tested on | test | system | setting | how to read | quantity | value
CSc1nc(Cl)cc(Sc2nnc(-c3cc(C(F)(F)F)cc(C(F)(F)F)c3)[nH]2)n1 | Escherichia coli | – | MC4100 | no additive | – | MIC | > 590 µg/mL
Cc1ccc(S(=O)(=O)N(C)CC(=O)N(Cc2ccc(C3CCCCC3)cc2)c2ccc(C(=O)O)c(O)c2)cc1 | NIH3T3/v-Src, PANC-1, MDA-MB-231 | immunoblotting, refers to: phospho-Src Tyr416 | – | concentration not given, 24 h | – | phosphorylation level | no effect
